# Literature values that unrelated publications cite.
# Numbers after ± are the reported error.
SMILES,cell line,assay,setting,scale,measurement,result
CC[C@H](C)[C@@H]1NC(=O)[C@H](CC(=O)O)NC(=O)[C@H](CC(=O)O)NC(=O)CNC(=O)[C@@H]2CCCN2C(=O)[C@H](CC(=O)O)NC(=O)[C@H](Cc2ccc(O)cc2)NC(=O)[C@H]([C@@H](C)CC)NC(=O)[C@@H](N)CCC(=O)NCCCC[C@@H](C(=O)O)NC1=O,Caco-2 and Jurkat,cell adhesion,180 µM,baseline: control peptide,inhibition,~70%
CC(C)(C)c1cc(C(=O)OC[C@H]2O[C@H](O[C@H]3O[C@H](COC(=O)c4cc(C(C)(C)C)cc(C(C)(C)C)c4O)[C@@H](O)[C@H](O)[C@H]3O)[C@H](O)[C@@H](O)[C@@H]2O)c(O)c(C(C)(C)C)c1,human PBMC,"measured: IL-1β, IL-6, IL-23, TNF-α",,,concentration inducing Th17 cytokines,< 1 µM
Cc1c(C(=O)NNC(=S)Nc2ccc(Cl)cc2)nnn1Cc1nc2ccccc2[nH]1,WI-38 and MCF7,,,baseline: WI-38 over MCF7,selectivity index,5.76
CCn1cc(-c2cc(Cn3ccnc3)cc3c2CCN([C@H](c2cc(OC)ccn2)C2CC2)C3=O)c(C(F)(F)F)n1,K562,cell proliferation,,,GI50,1.5 ± 0.86 µM
O=C(/C=C/c1ccc(Cl)cc1)N1CCC2(CC1)CN(Cc1ccc(Cl)c(Cl)c1)C(=O)O2,B cells overexpressing EBI2,inhibitor,concentration not given,,cell proliferation,inhibited
O=C1c2ccccc2-c2c1c1ccccc1c(=O)n2C[C@@H](O)[C@H](O)[C@H](O)CO,60 cancer cell lines,cell growth,10 µM,,mean growth,58.4%
COc1c(O)cc2oc3cc(O)c(CC=C(C)C)c(O)c3c(=O)c2c1CC=C(C)C,MCF7,measured: ERα and pS2,"10 µM, 48 h",,protein expression,decreased
O=C1c2ccccc2-c2c1c1ccc([N+](=O)[O-])cc1c(=O)n2C[C@H](O)[C@@H](O)[C@H](O)[C@H](O)CO,60 human cancer cell lines,cell growth,,,mean GI50,4.6 ± 0.53 µM
CN(C)CCCOc1cc(F)c(-c2c(Cl)nc3ncnn3c2NCC2(C)CC2)c(F)c1,HEK293,,"1 µM, 4 h, unit not given",baseline: vehicle (DMSO),total α-tubulin level,0.84 ± 0.12
CC(C)C[C@@H]1NC(=O)[C@H](C(C)C)NC(=O)[C@H](CCCNC(=N)N)NC(=O)[C@@H](N)CSSC[C@@H](C(=O)O)NC(=O)[C@H](CO)NC(=O)CNC(=O)[C@H](CO)NC(=O)[C@H](CCCNC(=N)N)NC1=O,RAW264.7,,concentration not given,,cell binding,binds
O=C(Nc1cc2nc(-c3ccc(F)c(F)c3)cn2cn1)N1CC[C@H](F)C1,CRL-8155,,,,EC50,> 50 µM
Oc1cccc(-c2cccc(O)n2)n1.[Cl-].[Cl-].[Ru+2].c1cnc2c(c1)ccc1cccnc12.c1cnc2c(c1)ccc1cccnc12,HeLa,,,baseline: dark IC50 over light IC50,phototoxicity index,3.8
CCC1=C(C)C2=C(c3ccc([P+](C)(C4CCCCC4)C4CCCCC4)cc3)c3c(C)c(CC)c(C)n3[B-](C)(C)[N+]2=C1C,MCF7,mitochondrial depolarisation response,,,fluorescence intensity decrease,> 70%
COc1ccc(S(=O)(=O)N(C)C)cc1N1CCN(C(=O)c2ccc(F)cc2C(F)(F)F)CC1,dopamine neurons,,added: MPP+,,neuroprotective concentration,1 µM
O=C1c2ccccc2-c2c1c1ccccc1c(=O)n2C[C@H](O)[C@@H](O)[C@H](O)[C@H](O)CO,60 cancer cell lines,cell growth,10 µM,,mean growth,97.2%
CN(C)CCCOc1cc(F)c(-c2c(Cl)nc3ncnn3c2NCC(C)(C)C)c(F)c1,HEK293,,"10 µM, 4 h, unit not given",baseline: vehicle (DMSO),total α-tubulin level,0.73 ± 0.07
CC(=O)O[C@H]1C2=C(C(=O)C(O)=C(C(C)C)C2=O)[C@@]2(C)CCCC(C)(C)[C@@H]2[C@@H]1O,MCF7,,,,GI50,6.4 ± 0.4 µM
C[C@@H](Nc1c(-c2c(F)cc(OCCCO)cc2F)c(Cl)nc2ncnn12)C(C)(C)C,HEK293,,"10 µM, 4 h, unit not given",baseline: vehicle (DMSO),acetylated α-tubulin level,8.92 ± 0.36
Oc1cccc(-c2cccc(O)n2)n1.[Cl-].[Cl-].[Ru+2].c1cnc2c(c1)c1c(c3cccnc32)OCCO1.c1cnc2c(c1)c1c(c3cccnc32)OCCO1,HeLa,,,baseline: dark IC50 over light IC50,phototoxicity index,6
C[C@@H](Nc1c(-c2c(F)cc(C#CCCN)cc2F)c(Cl)nc2ncnn12)C(C)(C)C,HEK293,,"1 µM, 4 h, unit not given",baseline: vehicle (DMSO),total α-tubulin level,0.96 ± 0.026
O=C1NCCN1CC(O)Cn1c2ccc(F)cc2c2cc(F)ccc21 (centres unmarked),glioblastoma stem cells,viability,,,EC50,≥ 10 µM
C=CC(=O)Nc1ccccc1Nc1nc(Nc2ccnc(C#CCCNC(=O)OC3CC/C=C/CCC3)c2)ncc1Cl (centres unmarked),A-375,,,,GI50,0.47 ± 0.16 µM
CCOc1ccccc1,MOLM-13,,concentration not given,,cytotoxicity activity class,inactive
C[C@H](Nc1c(-c2c(F)cc(OCCCN)cc2F)c(Cl)nc2ncnn12)C(F)(F)F,HEK293,,"10 µM, 4 h, unit not given",baseline: vehicle (DMSO),acetylated α-tubulin level,0.92 ± 0.35
Clc1ccccc1C(c1ccccc1)(c1ccccc1)n1cc[n+]([Pt-2]([Cl])([Cl])[n+]2ccn(C(c3ccccc3)(c3ccccc3)c3ccccc3Cl)c2)c1,human tumour cell line panel,,concentration not given,,antiproliferative activity,active
CNCCCOc1cc(F)c(-c2c(Cl)nc3ncnn3c2N[C@@H](C)C(F)(F)F)c(F)c1,HEK293,,"1 µM, 4 h, unit not given",baseline: vehicle (DMSO),acetylated α-tubulin level,6.98 ± 0.91
O=C1c2ccccc2-c2c1c1ccc([N+](=O)[O-])cc1c(=O)n2C[C@H](O)CO,60 human cancer cell lines,cell growth,,,mean GI50,0.156 ± 0.061 µM
CN(C)CCCOc1cc(F)c(-c2c(Cl)nc3ncnn3c2NCC2(C)N=N2)c(F)c1,HEK293,,"10 µM, 4 h, unit not given",baseline: vehicle (DMSO),acetylated α-tubulin level,0.29 ± 0.03
COc1ccc(Cn2cc3c(c2-c2cc(OC)c(OC)c(OC)c2)CCc2cnoc2-3)cc1OC,multidrug-resistant cells,,"concentration not given, added: paclitaxel",,potentiation,80.5%

# Excerpt of the above:
SMILES,cell line,assay,setting,scale,measurement,result
C[C@@H](Nc1c(-c2c(F)cc(C#CCCN)cc2F)c(Cl)nc2ncnn12)C(C)(C)C,HEK293,,"1 µM, 4 h, unit not given",baseline: vehicle (DMSO),total α-tubulin level,0.96 ± 0.026
O=C1NCCN1CC(O)Cn1c2ccc(F)cc2c2cc(F)ccc21 (centres unmarked),glioblastoma stem cells,viability,,,EC50,≥ 10 µM
